Results of several laboratories.
Lines come from different studies, so protocols differ. “And” joins repeats or separate records; there may be more than shown. Numbers after ± are the reported error.

CC(C)Cc1ccc(C(C)C(=O)[Se]CC(=O)Nc2cccc(C(F)(F)F)c2)cc1 (centres unmarked)
CC50 (NCI60 CNS subpanel; NCI60 five-dose screen): 6.7 µM

CC(C)C[C@H](NC(=O)[C@H](CCC(=O)O)NC(=O)[C@@H](N)Cc1ccccc1)C(=O)N[C@@H](CCC(=O)O)C(=O)N[C@@H](CCCNC(=N)N)C(=O)N[C@@H](CCCNC(=N)N)C(=O)N[C@@H](Cc1ccccc1)C(=O)N[C@@H](CCCCN)C(=O)N[C@@H](CCC(N)=O)C(=O)N[C@@H](CCC(N)=O)C(=O)O
viability (HCT-116; CCK-8; 5 µM; reference: vehicle): 106% and 102% and 103%

O=C(C[Se]C(=O)c1ccc2ccccc2c1)Nc1cccc(C(F)(F)F)c1
CC50 (NCI60 breast subpanel; NCI60 five-dose screen): 10.5 µM

COc1ccccc1-c1ccncc1C(=O)Nc1nnc(OCc2ccc(Cl)cc2)s1
colony survival (RPE-1 BRCA1 WT parental; 8 µM, average of 2 runs; reference: untreated): 75.7%

CC(C)C[C@H](NC(=O)[C@H](CC(=O)O)NC(=O)CNC(=O)[C@@H](N)CCCNC(=N)N)C(=O)N[C@@H](C)C(=O)N[C@H](C(=O)N[C@@H](CC(C)C)C(=O)N[C@@H](CCCNC(=N)N)C(=O)N[C@@H](CCC(N)=O)C(=O)N[C@@H](CC(C)C)C(=O)N[C@@H](C)C(=O)N[C@@H](CCC(N)=O)C(=O)N[C@@H](CCC(=O)O)C(=O)N[C@@H](CC(=O)O)C(=O)NCC(=O)N[C@H](C(=O)N[C@H](C(=O)NCC(=O)N[C@H](C(=O)N[C@@H](CCCNC(=N)N)C(=O)NCCOCCOCCOCCOCCOCCOCCOCCOCCOCCOCCOCCOCCC(=O)N[C@@H](CS)C(N)=O)C(C)C)C(C)C)C(C)C)[C@@H](C)O
selectivity ratio (BEAS-2B bronchial epithelial; cell binding, phage binding, item: output/input phage; 10 min, 37 °C; reference: control phage): 4.1 ± 2

Cc1cc(Oc2nc(N3CC[C@@H](c4ccncc4)C3)ncc2F)[nH]n1
IC50 (Cervix cancer cell lines; cell proliferation): 44.7 µM

CC(=O)NCSC[C@H](NC(=O)[C@@H]1CCCN1C(=O)[C@H](C)NC(=O)[C@@H](NC(=O)CNC(=O)[C@@H](NC(=O)[C@H](Cc1c[nH]c2ccccc12)NC(=O)[C@H](C)NC(=O)CNC(=O)[C@H](CO)NC(=O)[C@H](C)NC(=O)[C@@H]1CCCN1C(=O)[C@H](Cc1c[nH]c2ccccc12)NC(=O)[C@H](C)NC(=O)[C@H](C)NC(=O)[C@@H](N)Cc1ccc(O)cc1)[C@@H](C)O)[C@@H](C)O)C(=O)N[C@@H](CO)C(=O)N[C@@H](C)C(=O)NCC(=O)N[C@H](C(=O)NCCOCCOCCOCCOCCOCCOCCOCCOCCOCCOCCOCCOCCC(=O)N[C@@H](CS)C(N)=O)[C@@H](C)O
selectivity ratio (LNCaP prostate carcinoma; cell binding, phage binding, item: output/input phage; 10 min, 37 °C; reference: control phage): 0.31 ± 0.27

O=C(C[Se]C(=O)c1cc2ccccc2s1)Nc1cccc(C(F)(F)F)c1
CC50 (NCI60 CNS subpanel; NCI60 five-dose screen): 6.92 µM

CC(C)(C)C(=O)OCOP(=O)(OCOC(=O)C(C)(C)C)C1CCCN(O)C1=O (centres unmarked)
log GI50 (U-251): -6.47 log M

O=C(C[Se]C(=O)c1ccccc1)Nc1cccc(C(F)(F)F)c1
mean growth percent (NCI60 colon subpanel; cell growth; 10 µM, 48 h, one-dose): -3.5%

O=c1c(O)c(-c2ccc(O)c(O)c2)oc2cc(O)cc(O)c12
EC50 (SH-SY5Y Aβ-GFP cells; ROS reduction, CellROX): 6.8 µM

CSCC[C@H](NC(=O)[C@@H](NC(=O)[C@H](CCC(N)=O)NC(=O)[C@H](CO)NC(=O)[C@@H](N)C(C)C)[C@@H](C)O)C(=O)N[C@@H](CCCNC(=N)N)C(=O)N[C@@H](CCC(N)=O)C(=O)N[C@H](C(=O)N[C@@H](C)C(=O)N[C@H](C(=O)N1CCC[C@H]1C(=O)N[C@@H](CC(C)C)C(=O)N[C@@H](CC(C)C)C(=O)N[C@@H](Cc1c[nH]c2ccccc12)C(=O)N[C@@H](Cc1ccccc1)C(=O)N[C@@H](Cc1c[nH]c2ccccc12)C(=O)N[C@H](C(=O)NCC(=O)N[C@@H](CO)C(=O)N[C@@H](CC(C)C)C(=O)NCCOCCOCCOCCOCCOCCOCCOCCOCCOCCOCCOCCOCCC(=O)N[C@@H](CS)C(N)=O)[C@@H](C)O)C(C)C)[C@@H](C)O
selectivity ratio (H1975 lung adenocarcinoma; cell binding, phage binding, item: output/input phage; 10 min, 37 °C; reference: control phage): 0.39 ± 0.16

C1N2CN3CN1CP(C2)C3.COc1ccc(C([O-])=CC(=O)c2ccc(C(C)(C)C)cc2)cc1.Cc1ccc(C(C)C)cc1.[Ru+2]
phototoxicity index (HL-60; reference: dark IC50 over light IC50): 1

O=C(c1cc(Cc2n[nH]c(=O)c3ccccc23)ccc1F)N1CC(CNC2CC2)C1
IC90 (human bone marrow progenitor cells; colony formation; 14 days): 8.99 µM

O=C(O)c1ccc(-c2nc(-c3ccccc3Cl)c3sccn23)cc1
CD235a-positive cells (K562; erythroid differentiation, flow cytometry; 0.01 mM, 48 h): 87.5% and 75.8%

COc1ccc(NC(=O)c2ccc3[nH]c(-c4ccc(N(C)C)cc4)nc3c2)cn1
PI-positive cells (HCT116; IncuCyte; concentration not given, 4 (unit not given)): 4.83 count and 3.42 count and 3.92 count

CNC(=S)N/N=C/c1ccc(OCc2ccccc2)cc1
catalase activity (OD450) (IMR-32; 500 µg/mL, 24 h; higher = more activity): 0.086 a.u.
